Measured values gathered from unrelated publications.
Parts stem from different laboratories: compare values within a part only. Changes are numbered by the printed parent chain.

Sample 1 — target: CCNA1, cyclin fold, Cln2 fusion (human); method: yeast growth competition, sequencing; medium: yeast; notes: weak parent motif; reference: not given; reading: higher = stronger binding
Starting sequence: SCAPER docking peptide (human); SNARRSLNFGGST; partner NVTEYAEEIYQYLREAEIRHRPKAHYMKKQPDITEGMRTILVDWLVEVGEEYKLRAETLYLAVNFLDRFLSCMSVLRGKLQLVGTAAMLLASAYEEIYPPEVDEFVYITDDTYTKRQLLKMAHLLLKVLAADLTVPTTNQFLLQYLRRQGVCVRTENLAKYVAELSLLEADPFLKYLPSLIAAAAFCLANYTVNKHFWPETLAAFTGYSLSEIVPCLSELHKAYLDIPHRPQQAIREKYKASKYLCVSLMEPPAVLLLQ
Variant | normalised enrichment score
F9D | 0.35
T13S | 0.635
G11F | 0.765
R5F | 0.514
T13I | 0.594

Sample 2 — method: RNAcompete; molecule type: RNA; medium: in vitro; concentration: 20 nM; notes: 7-mer, probes averaged, single round; reference: mean of 7-mers; reading: higher = stronger binding
Target: PABPC1L2, full length, GST fusion (mouse, UniProt A0ABA7IW68)
Residues (chain): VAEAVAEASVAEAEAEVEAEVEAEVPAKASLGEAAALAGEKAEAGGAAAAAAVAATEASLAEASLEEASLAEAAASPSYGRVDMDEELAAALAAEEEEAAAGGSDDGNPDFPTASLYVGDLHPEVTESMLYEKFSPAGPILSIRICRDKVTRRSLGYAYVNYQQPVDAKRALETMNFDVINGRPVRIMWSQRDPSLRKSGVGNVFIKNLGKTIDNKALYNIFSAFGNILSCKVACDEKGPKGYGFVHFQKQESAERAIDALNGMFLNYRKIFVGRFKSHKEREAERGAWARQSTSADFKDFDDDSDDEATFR
Oligonucleotide | 7-mer Z-score
GUACCUU | -0.161
ACGCUUA | -0.258
UUUGUAC | -0.309
UAGCUGA | -0.0192
CCACGAG | -0.159
CCCAACG | -0.3
UUCGCCU | -0.472
AUGUCCC | -0.258
CGGACCC | -0.228

Sample 3 — method: RNA Bind-n-Seq; molecule type: RNA; medium: in vitro; concentration: 365 nM; reference: no-protein control; reading: higher = stronger binding
Target: RNA binding protein fox-1 homolog 2, RRM domain, GST-SBP tag (RBFOX2, Homo sapiens, UniProt O43251-10, residues 100-194)
Notes: natural RNA segment, single round, ends assumed
Shared flanks, not repeated: GGGAGUUCUACAGUCCGACGAUC … UGGAAUUCUCGGGUGCCAA
Construct (chain): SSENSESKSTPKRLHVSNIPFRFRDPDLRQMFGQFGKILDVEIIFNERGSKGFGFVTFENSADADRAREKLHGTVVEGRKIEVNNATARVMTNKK
Oligonucleotide | RBNS enrichment (R)
CUGGUCUUUGGGAGGCAAUAGGCCACCAUGCCUGGUCAGCACCAAUUCAAGCCAUGCCAGGAAUCUGCCUACCUGCCAGGUUCAGUUCUUUUAAGGUGCCUCUUCAGGGA | 0.359
GGGAAAUGCAGUGAAUUACUAUCUGUGUCCAUCAGGAAGUUUGUCCUGUUAACCAAAUGGUUACUGCACUACCAGGGUUACUGGUUUAUUUUCCAGGGAGCUGAUAAAGC | 0.304
GAGUCUUCCUGUUUUUCCUGUACCGGGUCAUGGUAAUUUUUGGUUGUUUUGGUUGUUUUCUUAAAAAACAAGUUAAAACCUGACGAUUUCUGCAGGCUGUGUAAGCAUGU | 0.752
ACUGACGCUCAGUAACCAUGCAAAAUUGUGUAUAGCAUUAAUGUAUCUACAUACCUACACCUAUCUAUAUAUAAGCUCAUGGUAGAAAACCAUAGCUAAGUAGCAUCGCA | 0.32
UCAAUUGUGCUUUAGGAAAUUAUUGACAGUUUUGCACAGGUUCUUGAAAACGUUAUUUAUAAUGAAAUCAACUAAAACUAUUUUUGCUAUAAGUUCUAUAAGGUGCAUAA | 0.646

Further values, each from its own experiment
Molecule | target | assay | test system | setting | scale | endpoint | result
PhoQ, residues 284 288 289 292 302 303 QWQEDG | PhoP, residues 12 14 15 18 19 LYFRQ (Escherichia coli, UniProt P23836) | Sort-seq, item: YFP reporter | E. coli | PhoQ-PhoP variant library, together with: 10 µM Mg2+ | reference: high Mg2+ state, higher = stronger signaling | fold induction | 16.9

Excerpt of the above (sample 3):
Oligonucleotide | RBNS enrichment (R)
UCAAUUGUGCUUUAGGAAAUUAUUGACAGUUUUGCACAGGUUCUUGAAAACGUUAUUUAUAAUGAAAUCAACUAAAACUAUUUUUGCUAUAAGUUCUAUAAGGUGCAUAA | 0.646
GGGAAAUGCAGUGAAUUACUAUCUGUGUCCAUCAGGAAGUUUGUCCUGUUAACCAAAUGGUUACUGCACUACCAGGGUUACUGGUUUAUUUUCCAGGGAGCUGAUAAAGC | 0.304
